Values quoted from earlier work as cited in several papers.
Numbered parts are unrelated; values within a part may stem from several laboratories.

Set 1
Target: dopamine transporter
| Structure (SMILES) | IC50 [µM] |
| --- | --- |
| O=C(CCCN1CC=C(n2c(=O)[nH]c3ccccc32)CC1)c1ccc(F)cc1 | > 10 |
| CCN(CC)CC(=O)Nc1c(C)cccc1C | > 10 |
| O=C1CCc2cc(OCCCCc3nnnn3C3CCCCC3)ccc2N1 | > 10 |

Set 2
Organism: Cryptosporidium parvum
Concentration: concentration not given
| Compound | activity |
| --- | --- |
| CNCCC=C1c2ccccc2CCc2ccccc21 | inactive |
| Cc1cccc(C)c1OCC(C)N (stereo not drawn) | inactive |
| CN/C(=N/CCSCc1nc[nH]c1C)NC#N | inactive |
| CCc1cc(C(N)=S)ccn1 | inactive |
| Cn1cnc([N+](=O)[O-])c1Sc1ncnc2nc[nH]c12 | inactive |
| Brc1c(NC2=NCCN2)ccc2nccnc12 | inactive |
| OCCOCCN1CCN(C2=Nc3ccccc3Sc3ccccc32)CC1 | inactive |
| Clc1cccc(Cl)c1N=C1NCCN1 | inactive |
| O=C1Nc2ccccc2/C1=C1/Nc2ccccc2C1=O | inactive |
| CNCC[C@H](Oc1cccc2ccccc12)c1cccs1 | inactive |
| COC(=O)[C@H](c1ccccc1Cl)N1CCc2sccc2C1 | inactive |
| O=C(O)c1cccnc1 | inactive |
| Nc1nc2ccc(Cl)cc2c2nc(-c3ccco3)nn12 | inactive |
| COc1cc(Cc2cnc(N)nc2N)cc(OC)c1OC | inactive |
| CN1CCCCC1CCN1c2ccccc2Sc2ccc([S+](C)[O-])cc21 (stereo not drawn) | inactive |

Other studies, line by line
| SMILES | tested on | assay | system | conditions | scale | measurement | result |
| --- | --- | --- | --- | --- | --- | --- | --- |
| N#CCNC(=O)c1ccc(-c2ccnc(Nc3ccc(N4CCOCC4)cc3)n2)cc1 |  |  | patients with myelofibrosis | dose not given, pooled three phase III trials |  | incidence of grade ≥3 anaemia adverse events | 14.8% |
| CO[C@H]1C[C@@H]2CC[C@@H](C)[C@@](O)(O2)C(=O)C(=O)N2CCCC[C@H]2C(=O)O[C@H]([C@H](C)C[C@@H]2CC[C@@H](OCCO)[C@H](OC)C2)CC(=O)[C@H](C)/C=C(\C)[C@@H](O)[C@@H](OC)C(=O)[C@H](C)C[C@H](C)/C=C/C=C/C=C/1C |  |  | plasma | population PK two-compartment |  | intercompartmental clearance (Q) | 46.2 L/h |
| CC(C)n1c(Nc2cccnc2)nc2cnc(Nc3ccc(N4CCN(C)CC4)cc3)nc21 |  |  | healthy human | 100 mg, single dose |  | Cmax | 46.4 ng/mL |
| N#Cc1ccc([C@H]2CCc3cncn32)c(F)c1 |  |  | human | oral, 30 mg |  | oral clearance | ~16.6 L/h |
| CN(C)CC#Cc1ccc(OCCCc2sc(N3CCc4cccc(C(=O)Nc5nc6ccccc6s5)c4C3)nc2C(=O)O)c(F)c1 | BCL2L1 | cell-based |  |  |  | EC50 | 0.07 µM |
| CC(C)(C#Cc1ccc(-c2ccc(Cl)c3c(NS(C)(=O)=O)nn(CC(F)(F)F)c23)c([C@H](Cc2cc(F)cc(F)c2)NC(=O)Cn2nc(C(F)(F)F)c3c2C(F)(F)[C@@H]2C[C@H]32)n1)S(C)(=O)=O | HIV-1 | viral replication | wild type |  |  | EC50 | 0.00013 µM |
| COc1cc(-c2cn(C3CCc4c(F)cccc4N(CC(F)(F)F)C3=O)nn2)ccc1-n1cnc(C)c1 (stereo not drawn) | SLC6A4 |  |  |  |  | IC50 | 0.013 µM |
| CN(C)CC/C=C1/c2ccccc2Sc2ccc(Cl)cc21 | MCF7 | microarray, refers to: TNFAIP3 mRNA |  | concentration not given | reference: DMSO | log2 fold change | 3.47 |
| O=C(N1CCS(=O)(=O)CC1)N1C[C@H](c2ccc(OC(F)(F)F)cc2)C[C@H](c2nc(C3CC3)no2)C1 | F2R | cellular activity |  |  |  | IC50 | 0.01 µM |
| Cn1cncc1[C@@](N)(c1ccc(Cl)cc1)c1ccc2c(c1)c(-c1cccc(Cl)c1)cc(=O)n2C |  |  | human, newly diagnosed untreated JMML | dose not given, complete plus partial response |  | response rate | 58% |
| CN(C/C=C/C#CC(C)(C)C)Cc1cccc2ccccc12 | squalene epoxidase (Trichophyton rubrum) |  |  |  |  | IC50 | 0.0158 µM |
| O=C(c1ccc(Cl)cc1)N(Cc1ccccc1)C1CCCCC1 | RAGE |  | RAGE-transfected cells | concentration not given |  | binding | binds |

For quick reference, copied from above (set 2):
| Compound | activity |
| --- | --- |
| Cn1cnc([N+](=O)[O-])c1Sc1ncnc2nc[nH]c12 | inactive |
| CNCC[C@H](Oc1cccc2ccccc12)c1cccs1 | inactive |
| CNCCC=C1c2ccccc2CCc2ccccc21 | inactive |
